# Experimental data from different studies.
# “And” joins repeats or separate records; there may be more than shown. ± marks the error that the study gave.
# Chymotrypsinogen A: Chymotrypsinogen A (Bos taurus, UniProt P00766)
# APP Aβ42 fibrils: Amyloid-beta precursor protein, Aβ42 fibrils (APP, Homo sapiens, UniProt P05067)
# Chain of UniProt P05067 (whole entry, looked up): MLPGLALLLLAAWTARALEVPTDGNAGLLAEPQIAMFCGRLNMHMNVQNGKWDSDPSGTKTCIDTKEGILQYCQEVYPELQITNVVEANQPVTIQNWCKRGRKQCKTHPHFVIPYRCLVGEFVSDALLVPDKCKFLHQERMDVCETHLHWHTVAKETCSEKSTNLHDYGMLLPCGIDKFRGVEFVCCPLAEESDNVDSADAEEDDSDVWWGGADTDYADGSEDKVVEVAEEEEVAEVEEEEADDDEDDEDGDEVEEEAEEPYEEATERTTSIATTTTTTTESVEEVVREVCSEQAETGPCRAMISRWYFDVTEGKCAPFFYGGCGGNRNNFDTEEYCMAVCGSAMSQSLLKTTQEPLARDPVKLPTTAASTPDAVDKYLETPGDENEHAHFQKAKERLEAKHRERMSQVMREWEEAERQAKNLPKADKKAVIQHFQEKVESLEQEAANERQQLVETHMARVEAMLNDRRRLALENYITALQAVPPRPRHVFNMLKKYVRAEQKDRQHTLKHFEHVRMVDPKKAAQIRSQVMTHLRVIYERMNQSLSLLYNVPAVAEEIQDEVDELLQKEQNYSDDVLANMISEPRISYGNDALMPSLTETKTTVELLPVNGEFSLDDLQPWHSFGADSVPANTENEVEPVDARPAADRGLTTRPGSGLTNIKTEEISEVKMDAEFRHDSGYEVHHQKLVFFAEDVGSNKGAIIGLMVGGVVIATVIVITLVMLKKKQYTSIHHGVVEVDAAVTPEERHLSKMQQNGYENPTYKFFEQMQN
# Chain of UniProt Q92769 (whole entry, looked up): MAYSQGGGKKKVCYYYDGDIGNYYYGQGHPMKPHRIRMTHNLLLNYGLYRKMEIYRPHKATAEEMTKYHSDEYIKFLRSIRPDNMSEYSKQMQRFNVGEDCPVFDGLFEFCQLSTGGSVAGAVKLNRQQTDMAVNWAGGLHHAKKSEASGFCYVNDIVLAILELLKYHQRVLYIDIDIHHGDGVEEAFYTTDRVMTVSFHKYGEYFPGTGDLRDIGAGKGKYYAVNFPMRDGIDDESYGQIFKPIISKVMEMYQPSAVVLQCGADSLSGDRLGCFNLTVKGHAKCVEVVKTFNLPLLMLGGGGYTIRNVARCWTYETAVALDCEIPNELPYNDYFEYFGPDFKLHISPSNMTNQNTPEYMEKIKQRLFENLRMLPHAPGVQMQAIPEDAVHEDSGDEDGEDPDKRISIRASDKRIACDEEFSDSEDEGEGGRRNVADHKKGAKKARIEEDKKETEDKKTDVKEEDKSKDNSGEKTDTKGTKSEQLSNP
# Chain of UniProt P46098 (whole entry, looked up): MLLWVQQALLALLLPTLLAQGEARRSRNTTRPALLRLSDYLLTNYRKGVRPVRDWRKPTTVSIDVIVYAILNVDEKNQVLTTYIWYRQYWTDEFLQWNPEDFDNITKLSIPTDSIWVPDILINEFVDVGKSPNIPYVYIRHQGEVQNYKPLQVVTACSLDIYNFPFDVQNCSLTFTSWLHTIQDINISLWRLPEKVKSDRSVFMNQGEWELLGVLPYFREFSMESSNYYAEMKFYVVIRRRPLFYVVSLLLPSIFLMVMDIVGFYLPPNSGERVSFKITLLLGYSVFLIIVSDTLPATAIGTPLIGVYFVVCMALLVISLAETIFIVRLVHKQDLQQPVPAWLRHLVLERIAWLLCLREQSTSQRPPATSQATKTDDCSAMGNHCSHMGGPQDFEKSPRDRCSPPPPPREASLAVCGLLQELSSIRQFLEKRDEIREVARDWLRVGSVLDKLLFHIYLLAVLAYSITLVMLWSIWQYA
# Chain of UniProt P47746 (whole entry, looked up): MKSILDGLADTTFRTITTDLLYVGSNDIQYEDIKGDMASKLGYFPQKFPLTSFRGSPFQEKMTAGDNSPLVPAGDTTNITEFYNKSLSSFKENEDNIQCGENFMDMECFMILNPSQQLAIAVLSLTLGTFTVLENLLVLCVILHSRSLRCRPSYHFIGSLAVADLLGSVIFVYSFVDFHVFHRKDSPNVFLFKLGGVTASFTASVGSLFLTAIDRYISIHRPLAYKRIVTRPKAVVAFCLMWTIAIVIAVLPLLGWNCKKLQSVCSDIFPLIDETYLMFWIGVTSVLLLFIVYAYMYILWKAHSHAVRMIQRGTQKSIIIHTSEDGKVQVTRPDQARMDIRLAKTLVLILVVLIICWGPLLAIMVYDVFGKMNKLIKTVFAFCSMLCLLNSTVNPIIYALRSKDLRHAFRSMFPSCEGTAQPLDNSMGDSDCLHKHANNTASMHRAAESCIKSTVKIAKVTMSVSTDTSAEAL
SMILES,target,assay,test system,conditions,Ki
CC(=O)OCC1=C2C(C)=CC(C)=[N+]2[B-](C)(C)n2c(C)cc(C)c21,"Cathepsin B (CTSB, Homo sapiens, UniProt P07858)","irreversible inactivation, inhibitor",,"concentration not given, pH 5.5, 25 °C, in dark, added: Z-Arg-Arg-AMC",1400 ± 500000 µM
F[B-](F)(F)c1ccccc1/N=N/c1ccccc1,Chymotrypsinogen A,"enzyme activity, competitive inhibitor",buffer with 2 vol% DMSO,"pH 7.81, 25 °C, thermally adapted trans state, added: Suc-AAPF-AMC",29.2 µM
CC(C)(C)N1Cc2cccc(n2)CN(C(C)(C)C)Cc2cc(-c3nc4ccccc4s3)cc(n2)C1.[Cu+2],APP Aβ42 fibrils,"amyloid-beta 42 binding, thioflavin T competition",,pH 7.4,0.62 ± 0.17 µM
CCOC(=O)[C@@](CC)(CCCSCCOCCOCCN)NC(=O)c1ccc(C2CC2)c(Cc2ccc(F)cc2)n1,"Cannabinoid receptor 1 (Cnr1, Mus musculus, UniProt P47746)","ligand displacement, radioligand",,cell membranes,0.163 µM
Cn1ccc2c(N3CCN(CCCCOc4ccc5c(c4)NC(=O)CC5)CC3)cccc21,"5-hydroxytryptamine receptor 3A (HTR3A, Homo sapiens, UniProt P46098)","cell-free assay, radioligand",,,> 10 µM
[Cu+2].c1cc2nc(c1)CSCc1cccc(n1)CSC2,APP Aβ42 fibrils,"amyloid-beta 42 binding, thioflavin T competition",,pH 7.4,4.07 ± 2.13 µM
Cc1ccc(/N=N/c2ccccc2)cc1[B-](F)(F)F,Chymotrypsinogen A,"enzyme activity, competitive inhibitor",buffer with 2 vol% DMSO,"pH 7.81, 25 °C, thermally adapted trans state, added: Suc-AAPF-AMC",12.6 ± 0.557 µM
CCC1(CC)CC(=O)N(C2CCOc3ccc(C(=O)NC4CC(C)(C)Oc5ccccc54)cc32)C(=N)N1 (stereo not shown),"Plasmepsin X (Plasmodium vivax, UniProt A5KAC3)","enzyme activity, inhibitor, peptide cleavage",,,1.1e-05 ± 2e-06 µM
Cc1ccc([B-](F)(F)F)cc1/N=N/c1ccccc1,Chymotrypsinogen A,"enzyme activity, competitive inhibitor",buffer with 2 vol% DMSO,"pH 7.81, 25 °C, thermally adapted trans state, added: Suc-AAPF-AMC",5.8 µM and 5.84 µM
OB(O)c1ccc(OCc2ccccc2)nc1F,Chymotrypsinogen A,"enzyme activity, inhibitor, absorbance",,,167 µM
O=C(/C=C/c1cccc(OS(=O)(=O)Oc2ccc(Br)cc2)c1)NO,"Histone deacetylase 2 (HDAC2, Homo sapiens, UniProt Q92769)","enzyme activity, inhibitor, fluorescence",,,0.047 µM
OB(O)c1cnn(-c2cc(Cl)ncn2)c1,Chymotrypsinogen A,"enzyme activity, inhibitor, absorbance",,,99 µM
COC(=O)c1ccc(/N=N/c2cccc([B-](F)(F)F)c2)cc1,Chymotrypsinogen A,"enzyme activity, inhibitor",,"pH 7.81, 25 °C, cis-enriched photostationary state, added: Suc-AAPF-AMC",1220 µM
